Results pooled from the literature.
Protocols differ between the studies behind these lines.
Target: Serine/threonine-protein kinase 38-like (STK38L, Homo sapiens, UniProt Q9Y2H1)

`Cc1cccc(O[C@H]2CCC[C@@H](C(C)CNCc3ccncc3)C2)c1` (relative stereo) gave an inhibition of -7% (enzyme activity; 10 µM).
For `Nc1ncc2c(n1)-c1c([nH]c3ccc(C4=CCOCC4)cc13)CCC2`, the remaining binding was 89% (binding, competition with immobilised ligand; 1 µM).
The remaining binding of `C=CC(=O)N1CCCC(n2c(=O)c3ncccc3n(Cc3ccc(Oc4ccccc4)cc3)c2=O)C1` (stereo not shown) is reported as 92% (binding, competition with immobilised ligand; 1 µM).
With `CN1CC[C@@H](COc2cnc(C#N)cc2-c2ccn3nc(NC(=O)C4CC4)cc3c2)C1` the inhibition was 10% (enzyme activity, inhibitor; 1 µM).
With `CNC1C[S+]2CC[S+]3CC[S+](C1)[Ru-4]321([N]=C=S)[n]2c3ccc(OC)cc3c3c4c(c5cc(F)c[n+]1c5c32)C(=O)NC4=O` (stereo not shown) the remaining binding was 100% (KinomeScan; 0.1 µM; baseline: untreated).
The inhibition of `CCn1cc(C(=O)O)c(=O)c2c(N)c(F)c(NC3CCCCC3)cc21` is reported as -17.4% (kinase activity; 0.1 µM, together with: ATP at Km).
For `CN1CCN(Cc2ccc(-c3ccc(CO[C@H]4CCC[C@@H]4NC(=O)c4cc(-c5cnn(C)c5)cnc4N)cc3)cc2)CC1`, the inhibition was 28% (enzyme activity, inhibitor; 0.1 µM).
With `C=CC(=O)N1Cc2nc(-c3cc(-c4cc(Cl)cnc4Cl)c(F)cc3F)n(-c3ccncn3)c2C1` the inhibition was 9% (cell-free assay, inhibitor; 1 µM).
With `CC(C)=CC1OC(C)(C)C2C=C3C(=O)C(Cl)=CC(O)C3C3C(O)C4OC4C(=O)C132` (stereo not shown) the remaining binding was 86% (cell-free assay, competition with immobilised ligand; 10 µM).
For `NC(=O)C[C@H]1CCc2sc3ncnc(O[C@H]4CC[C@H](N5CCOCC5)CC4)c3c21`, the inhibition was 3% (enzyme activity, inhibitor; 10 µM).
With `C=CC(=O)N1CCc2ccc(-n3c(=O)ccc4cnc5ccc(-c6cnn(C)c6)cc5c43)cc21` the remaining binding was 92% (KINOMEscan; 1 µM; baseline: DMSO control).
The Hill slope of `Cc1ccc(C(=O)Nc2ccc(CN3CCN(C)CC3)c(C(F)(F)F)c2)cc1C#Cc1cnc2cccnn12` is reported as 0.728 (target engagement, NanoBRET; human cells).
With `Cc1ccc(-c2c(/C=C(\C#N)C(=O)NC(C)C)n(CCCO)c3ncnc(N)c23)cc1` the remaining binding was 74% (binding, competition with immobilised ligand; 1 µM).

Excerpt of the above:
For `CN1CCN(Cc2ccc(-c3ccc(CO[C@H]4CCC[C@@H]4NC(=O)c4cc(-c5cnn(C)c5)cnc4N)cc3)cc2)CC1`, the inhibition was 28% (enzyme activity, inhibitor; 0.1 µM).
